Assay results pooled from the literature.
Compare with care: the assays were run in different laboratories. Several values in a cell are separate wells, animals, samples, runs or records. Numbers after ± are the reported error.
UniProt Q9HAW8, sequence (whole entry, looked up): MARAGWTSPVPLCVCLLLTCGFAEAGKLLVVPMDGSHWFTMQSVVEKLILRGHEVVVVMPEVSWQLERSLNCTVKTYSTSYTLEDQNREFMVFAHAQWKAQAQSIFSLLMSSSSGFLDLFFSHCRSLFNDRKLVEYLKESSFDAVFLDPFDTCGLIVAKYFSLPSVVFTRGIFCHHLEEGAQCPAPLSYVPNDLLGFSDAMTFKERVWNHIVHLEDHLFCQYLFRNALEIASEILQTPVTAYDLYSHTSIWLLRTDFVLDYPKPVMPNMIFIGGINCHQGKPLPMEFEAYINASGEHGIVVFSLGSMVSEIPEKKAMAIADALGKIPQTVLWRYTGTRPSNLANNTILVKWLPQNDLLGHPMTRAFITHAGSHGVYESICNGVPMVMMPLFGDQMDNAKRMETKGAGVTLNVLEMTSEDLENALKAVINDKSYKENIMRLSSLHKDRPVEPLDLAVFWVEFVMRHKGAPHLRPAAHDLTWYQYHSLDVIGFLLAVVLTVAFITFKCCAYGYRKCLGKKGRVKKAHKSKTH
UniProt P38489, sequence (whole entry, looked up): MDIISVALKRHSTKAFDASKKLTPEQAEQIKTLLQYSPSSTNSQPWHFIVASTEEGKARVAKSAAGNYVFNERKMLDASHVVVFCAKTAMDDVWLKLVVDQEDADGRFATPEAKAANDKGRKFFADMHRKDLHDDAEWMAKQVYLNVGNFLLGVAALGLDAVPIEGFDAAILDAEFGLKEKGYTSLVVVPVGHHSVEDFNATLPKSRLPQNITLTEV
UniProt Q14973, sequence (whole entry, looked up): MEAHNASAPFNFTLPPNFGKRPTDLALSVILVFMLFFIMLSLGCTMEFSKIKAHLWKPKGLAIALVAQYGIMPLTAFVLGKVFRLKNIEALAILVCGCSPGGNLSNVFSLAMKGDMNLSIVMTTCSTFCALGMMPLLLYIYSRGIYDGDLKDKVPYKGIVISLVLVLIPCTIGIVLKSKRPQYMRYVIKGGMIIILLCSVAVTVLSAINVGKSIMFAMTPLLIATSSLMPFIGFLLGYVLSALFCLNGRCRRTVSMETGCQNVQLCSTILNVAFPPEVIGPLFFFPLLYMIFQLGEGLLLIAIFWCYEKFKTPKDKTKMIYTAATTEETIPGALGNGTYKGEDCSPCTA
UniProt P08183, sequence (whole entry, looked up): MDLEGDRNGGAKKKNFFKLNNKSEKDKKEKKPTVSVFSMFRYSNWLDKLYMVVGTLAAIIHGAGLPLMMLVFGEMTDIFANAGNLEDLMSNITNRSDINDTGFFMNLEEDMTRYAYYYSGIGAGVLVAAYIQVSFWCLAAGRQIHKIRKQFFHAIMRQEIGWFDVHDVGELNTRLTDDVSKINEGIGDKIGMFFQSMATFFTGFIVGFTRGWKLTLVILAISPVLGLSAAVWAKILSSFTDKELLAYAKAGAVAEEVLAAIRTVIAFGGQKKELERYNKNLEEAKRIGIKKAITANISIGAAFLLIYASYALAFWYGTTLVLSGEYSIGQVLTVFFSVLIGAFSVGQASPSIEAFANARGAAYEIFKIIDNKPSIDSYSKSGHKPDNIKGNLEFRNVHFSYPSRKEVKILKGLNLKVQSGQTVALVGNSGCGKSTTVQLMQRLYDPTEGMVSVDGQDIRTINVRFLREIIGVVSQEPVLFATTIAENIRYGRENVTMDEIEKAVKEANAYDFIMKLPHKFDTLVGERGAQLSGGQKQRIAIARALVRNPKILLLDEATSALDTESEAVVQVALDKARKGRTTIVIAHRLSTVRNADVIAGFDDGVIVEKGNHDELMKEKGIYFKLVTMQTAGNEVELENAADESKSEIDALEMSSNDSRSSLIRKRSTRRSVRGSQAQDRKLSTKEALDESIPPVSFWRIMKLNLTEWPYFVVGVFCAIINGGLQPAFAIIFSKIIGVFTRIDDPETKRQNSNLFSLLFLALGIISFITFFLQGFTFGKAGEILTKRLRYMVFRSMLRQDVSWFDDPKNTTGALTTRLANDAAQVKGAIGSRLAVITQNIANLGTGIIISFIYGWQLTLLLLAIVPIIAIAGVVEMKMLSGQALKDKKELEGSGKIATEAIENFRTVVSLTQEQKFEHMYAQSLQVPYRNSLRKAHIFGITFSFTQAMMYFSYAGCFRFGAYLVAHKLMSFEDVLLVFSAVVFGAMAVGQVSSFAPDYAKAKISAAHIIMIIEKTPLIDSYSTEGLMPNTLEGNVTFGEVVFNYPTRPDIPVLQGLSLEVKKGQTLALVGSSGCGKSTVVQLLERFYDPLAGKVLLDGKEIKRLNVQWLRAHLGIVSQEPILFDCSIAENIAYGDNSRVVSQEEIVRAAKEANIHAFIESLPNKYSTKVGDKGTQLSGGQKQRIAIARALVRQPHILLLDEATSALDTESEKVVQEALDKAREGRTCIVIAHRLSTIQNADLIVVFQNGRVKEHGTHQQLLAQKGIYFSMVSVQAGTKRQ

| Compound | tested on | assay | system | setting | scale | endpoint | result |
| --- | --- | --- | --- | --- | --- | --- | --- |
| [Cl-].[Cl-].[Pt+2].[Ru+2].c1ccc(-c2nc3cc4ccccc4cc3nc2-c2ccccn2)nc1.c1cnc2c(c1)ccc1cccnc12.c1cnc2c(c1)ccc1cccnc12 | Danio rerio | – | embryos | 30 µM, 96 h | – | hatching rate | 50 ± 5.7% |
| Nc1ncnc2c([C@@H]3N[C@H](CO)[C@@H](O)[C@H]3O)c[nH]c12 | HeLa | – | – | 400 µM | – | cell number | 1780 and 2740 |
| CO[C@H]1C[C@@H]2CC[C@@H](C)[C@@](O)(O2)C(=O)C(=O)N2CCCC[C@H]2C(=O)O[C@H]([C@H](C)C[C@@H]2CC[C@@H](OC(=O)NCCOCCOCCOCCOCCOCCOCCOCCOCCC(=O)N3CCc4cc(Cn5nc(-c6ccc7oc(N)nc7c6)c6c(N)ncnc65)ccc4C3)[C@H](OC)C2)C[C@@H](O)[C@H](C)/C=C(\C)[C@@H](O)[C@@H](OC)C(=O)[C@H](C)C[C@H](C)/C=C/C=C/C=C/1C | – | dose-escalation trial | patients with advanced solid tumours | intravenous, all doses weekly, any grade | – | abdominal pain TEAE incidence | 21.1% |
| OC(CCN1CC=C(c2ccc(F)cc2)CC1)c1ccc(F)c2ccccc12 (stereo not shown) | Salmonella typhimurium | SOS/umu test | TA1535/pSK1002, TGA medium | 0.000244 mg/mL, 4 h, with: 10% rat liver S9 | – | survival | 92.9% |
| COc1cccc(-c2n[nH]c(SCc3ccccn3)n2)c1OC | Salmonella typhimurium | Ames test, preincubation | TA98 | 0.50 mg/plate, without S9 | – | revertant colonies per plate | 21 |
| CC(C)CC(=O)OC[C@H]1O[C@@](C#N)(c2ccc3c(N)ncnn23)[C@H](O)[C@@H]1O | ABCB1 (Homo sapiens, UniProt P08183) | – | Caco-2 | 90 µM, 2 h | – | recovery A to B | 53.3% |
| Cc1cc2nc3c(=O)[nH]c(=O)nc-3n(C[C@H](O)[C@H](O)[C@H](O)COP(=O)(O)O)c2cc1C | nfsB (Escherichia coli K-12, UniProt P38489) | bound cofactor redox, redox titration | – | pH 7.0, 25 °C, anaerobic | – | midpoint potential | -199 ± 7 mV |
| C#Cc1ccc2c(c1)C(c1ccccn1)=NCc1c(-c3cnco3)ncn1-2.Cl | – | shake flask | aqueous buffer | 24 h, pH 2, 25 °C | – | solubility | 12 mg/mL |
| Cc1cc(C(=O)NC(C)(C)COc2cccc3c2C(N)=NS(=O)(=O)N3)cc(C)n1 | Salmonella typhimurium | Ames test, confirmatory | TA100 | 100 µg/plate, with: rat liver S9 | relative to: solvent control | revertant ratio | 1.1 |
| O=c1ccc2ccccc2o1 | NHEK | cell membrane permeability | – | concentration not given, 1 h, apoptosis, necrosis panel | – | chance response | 0.46% |
| CCCC[C@H](NC(C)=O)C(=O)N[C@@H](CO)C(=O)N[C@H](C(=O)N1CCC[C@H]1C(=O)N[C@@H](C)C(=O)N[C@@H](CCCNC(=N)N)C(=O)N[C@@H](CCCNC(=N)N)C(=O)N[C@@H](CCCNC(=N)N)C(=O)N[C@@H](CC(C)C)C(=O)N[C@@H](CCCC)C(=O)N[C@@H](CCCNC(=N)N)C(=O)N[C@@H](CC(=O)O)C(=O)N[C@@H](Cc1ccccc1)C(=O)N[C@@H](CCCCN)C(=O)N[C@@H](CCCNC(=N)N)C(=O)N[C@@H](CC(C)C)C(=O)N[C@@H](CCC(N)=O)C(N)=O)[C@@H](C)O | proteinase K | LC-MS | – | 25 µM, 122.9 min, pH 7.4 | – | remaining peptide | 0% and 0.7% |
| O=C(O)C(F)(F)C(F)(F)C(F)(F)C(F)(F)C(F)(F)C(F)(F)C(F)(F)F | SLC10A1 (Homo sapiens, UniProt Q14973) | uptake, substrate | HEK293 cells stably expressing SLC10A1, HBSS with HEPES | pH 7.4 | – | CLint | 6.53 ± 2.06 µL/min/mg |
| CC1(C)C(C=C(Cl)Cl)C1C(=O)OC(C#N)c1ccc(F)c(Oc2ccccc2)c1 (stereo not shown) | human cytosolic CES1 | IVIVE from expressed enzymes | human, liver, in vivo scaled | 0.1 µM, age-specific | – | enzyme contribution to CLint | 37.9% |
| CC(=O)N1CCC(C(=O)N2CCN3C(=O)c4cc(-c5ccccc5)ccc4NC(=O)C3C2)CC1 (stereo not shown) | Salmonella typhimurium | – | TA1537 | 1.58 µg/plate, with: rat liver S9 | – | revertants per plate | 29 |
| O=[N+]([O-])c1ccc(N2CCN(CCC(O)c3ccc(F)cc3)CC2)c(C(F)(F)F)c1 (stereo not shown) | Salmonella typhimurium | SOS/umu test | TA1535/pSK1002 | 0.031 mg/mL, 4 h, without S9, lower range | – | survival | 98.2% |
| O=C(O)c1cn(Cc2ccc(F)cc2)c2ccccc12 | UGT1A10 (Homo sapiens, UniProt Q9HAW8) | glucuronidation, substrate | – | – | – | Km | 38.5 ± 7.5 µM |
| CCOC(=O)N1CCC(=C2c3ccc(Cl)cc3CCc3cccnc32)CC1 | Plasmodium falciparum | – | D10 | – | – | IC50 | 10 µM |
| CCN(CC)C(=O)[C@@H]1C=C2c3cccc4[nH]cc(c34)C[C@H]2N(C)C1 | – | measured: intermittent shortness of breath | healthy volunteers | dose not given, 12 to 24 h | relative to: placebo, direction not given | List of Complaints score | 0 |
| CC1(C)[C@H](C(=O)OCc2cccc(Oc3ccccc3)c2)[C@@H]1C=C(Cl)Cl | human microsomal CES2 | IVIVE from expressed enzymes | human, 6 months old, expressed human CES2 | 0.1 µM | relative to: total hepatic CLint in vivo | relative enzyme contribution | 3.88% |
| OCc1ncc2n1-c1ccc(Cl)cc1C(c1ccccc1F)=NC2 | CYP3A4 (human) | – | human, plasma | oral, 2 mg midazolam, Day 14, with: encorafenib at steady state | relative to: Day -7 | geometric LS mean ratio of AUClast | 1.05 |
| O=S(=O)(c1cccc2c(Cl)cccc12)N1CCCNCC1 | Plasmodium falciparum | – | D10 | – | – | IC50 | 20 µM |
| COc1cc2c(Oc3ccc4[nH]c(C)cc4c3F)ccnc2cc1OCC1(N)CC1 | – | – | paediatric recurrent refractory sarcoma | 12 mg | – | Hypothyroidism incidence | 54.5% |

Repeated from above:
| Compound | tested on | assay | system | setting | scale | endpoint | result |
| --- | --- | --- | --- | --- | --- | --- | --- |
| CCN(CC)C(=O)[C@@H]1C=C2c3cccc4[nH]cc(c34)C[C@H]2N(C)C1 | – | measured: intermittent shortness of breath | healthy volunteers | dose not given, 12 to 24 h | relative to: placebo, direction not given | List of Complaints score | 0 |
| Cc1cc(C(=O)NC(C)(C)COc2cccc3c2C(N)=NS(=O)(=O)N3)cc(C)n1 | Salmonella typhimurium | Ames test, confirmatory | TA100 | 100 µg/plate, with: rat liver S9 | relative to: solvent control | revertant ratio | 1.1 |
| O=C(O)c1cn(Cc2ccc(F)cc2)c2ccccc12 | UGT1A10 (Homo sapiens, UniProt Q9HAW8) | glucuronidation, substrate | – | – | – | Km | 38.5 ± 7.5 µM |
